Results gathered from unrelated publications.
Several values in a cell are separate wells, animals, samples, runs or records.

Structure (SMILES) | tested on | assay | test system | setting | scale | measurement | value
COc1ccccc1CN1CC(C(=O)NCCN(C)CCc2ccccc2)CCC1=O (stereo not shown) | Trypanosoma cruzi | reporter mRNA translation, inhibitor, refers to: Renilla luciferase mRNA | cell-free extract | concentration not given, test 1 | baseline: positive over negative control | translation activity | 107% and 120%
CCCCNCCO.O=C(O)C(Cl)Cl | Chenopodium album | herbicidal activity | – | 15 mg/mL, 21 days, post-emergence greenhouse | – | inhibition | 0%
CN1CCCNC(=O)c2cccc(c2)C(=O)NCCCN(C)CCCNc2cccc3c2C(=O)c2cccc(c2C3=O)NCCC1 | SAS | RNA-Seq, refers to: ATP6V1E2 mRNA | – | 1 µM, 6 h | baseline: untreated cells | log2 fold change | 1.31
O=c1[nH]cc(C(c2cccc(Cl)c2)c2c[nH]c(=O)[nH]c2=O)c(=O)[nH]1 | HIV-1 subtype C | p24 antigen production, p24 ELISA | – | 125 µg/mL | – | inhibition | 63%
C[N+](C)(C)CCO.O=C([O-])C(Cl)Cl | Chenopodium album | herbicidal activity | – | 15 mg/mL, 21 days, pre-emergence greenhouse | – | inhibition | 0%
O=c1[nH]cc(C(c2ccc(Cl)cc2)c2c[nH]c(=O)[nH]c2=O)c(=O)[nH]1 | HIV-1 subtype C | p24 antigen production, p24 ELISA | – | 500 µg/mL | – | inhibition | 83%
CC(O)CNCC(C)O.O=C(O)C(Cl)Cl (stereo not shown) | Chenopodium album | herbicidal activity | – | 15 mg/mL, 21 days, post-emergence greenhouse | – | inhibition | 0%
CN(C)CCCSC(=S)N1CCN(C(=O)/C=C/c2coc3ccccc3c2=O)CC1 | CMV | virus inactivation | – | 500 µg/mL | – | inhibition | 71% and 80% and 79%
COc1ccc(CCNC2=CC3=[N+](C)CCc4c[nH]c(c43)C2=O)cc1 | Saccharomyces cerevisiae | cell growth, liquid culture | BY4741 | 100 µM, 24 h | – | inhibition | 92.3%
COc1ccc(CNc2nc([C@H]3CC[C@H](C(=O)O)CC3)nc3sc4ccccc4c23)cc1Cl | Cryptosporidium parvum | parasite growth, immunofluorescence imaging | HCT-8, Iowa | 74.1 nM | – | inhibition | -21.8% and -13.6%
CCc1ccc(CN2CCCC(CNC(=O)c3cccc(OC)c3OC)C2)cc1 (stereo not shown) | Trypanosoma cruzi | reporter mRNA translation, inhibitor, refers to: Renilla luciferase mRNA | cell-free extract | concentration not given, test 1 | baseline: positive over negative control | translation activity | 128% and 111%
Cc1ccccc1C(c1c[nH]c(=O)[nH]c1=O)c1c[nH]c(=O)[nH]c1=O | HIV-1 subtype C | p24 antigen production, p24 ELISA | – | 7.8 µg/mL | – | inhibition | < 25%
COC1CN([C@H]2CC[C@H]([C@@]3(C)Oc4c(Cl)cc(C(=O)NCc5c(SC)cc(C)[nH]c5=O)c(C)c4O3)CC2)C1 | – | RNA-seq, refers to: A3GALT2 | human, whole blood | dose not given, 24 h | baseline: pretreatment baseline | log2 fold change | 2.13

A few entries again:
Structure (SMILES) | tested on | assay | test system | setting | scale | measurement | value
O=c1[nH]cc(C(c2cccc(Cl)c2)c2c[nH]c(=O)[nH]c2=O)c(=O)[nH]1 | HIV-1 subtype C | p24 antigen production, p24 ELISA | – | 125 µg/mL | – | inhibition | 63%
